# Measurements pooled from the literature.
# Protocols differ between the studies behind these lines.
Structure (SMILES),organism,assay,system,setting,EC50
"O=c1cc[s+]([O-])c2ccc(Cl)cc12 (single isomer, unassigned; (+))",Leishmania panamensis,"parasite growth, flow cytometry",U-937,"72 h, intracellular, amastigote",214 µM
CC(=O)Oc1ccc(Cn2ccc(=O)[nH]c2=O)cc1C1OC(c2ccc(Cl)cc2)=NN1C(C)=O (centres unmarked),varicella-zoster virus,"plaque formation, plaque reduction","HEL fibroblasts, TK- strain 07-1",,> 20 µM
CC(C)Nc1nc(NCc2ccco2)c2ccccc2n1,Leishmania mexicana,parasite growth,,amastigote,1.41 µM
CN(C(=O)c1ccn2ncc(-c3ccc(C(F)(F)F)cc3)c2c1)c1ccc(C#N)cn1,Cryptosporidium hominis,cytopathic effect,HCT-8,,2.54 µM
CC(=O)Oc1ccc(Cn2ccc(=O)[nH]c2=O)cc1C1OC(c2ccccc2)=NN1C(C)=O (centres unmarked),varicella-zoster virus,"plaque formation, plaque reduction","HEL fibroblasts, TK- strain 07-1",,> 100 µM
COc1ccccc1CNC(=O)CSc1c[nH]c2ccccc12,human coronavirus OC43,"viral cytopathic effect, MTS",HCT-8,120 h,1.13 µM
CCCCCCCCCC(=O)OCC1OC(n2cc(C)c(=O)[nH]c2=O)CC1N(C)C (centres unmarked),reovirus 1,viral replication,Vero,,> 0.23 µM
CC(=O)Oc1ccc(Cn2cc(C)c(=O)[nH]c2=O)cc1C1OC(c2ccc(Cl)cc2)=NN1C(C)=O (centres unmarked),varicella-zoster virus,"plaque formation, plaque reduction","HEL fibroblasts, TK- strain 07-1",,> 20 µM
O=C1/C(=N\NC(=S)NN=Cc2cccs2)c2ccccc2N1Cc1ccccc1,reovirus 1,viral cytopathogenicity,Vero,,> 20 µM
CC(=O)Oc1ccc(Cn2cc(F)c(=O)[nH]c2=O)cc1C1OC(c2ccc(Cl)cc2)=NN1C(C)=O (centres unmarked),varicella-zoster virus,"plaque formation, plaque reduction","HEL fibroblasts, TK+ strain OKA",,> 20 µM
CCCCCCC(CC=CCCCCCCCC(=O)OCCOCn1cnc2c(=O)[nH]c(N)nc21)OC(=O)CCCCC1SCC2NC(=O)NC21 (centres unmarked),Epstein-Barr virus,"viral DNA accumulation, DNA hybridization",Akata cells,72 h,2.1 µM
CC(C)OC(=O)[C@H](Cc1ccccc1)NP(=O)(COCCn1cnc2c(=O)[nH]c(=O)[nH]c21)N[C@@H](Cc1ccccc1)C(=O)OC(C)C,varicella-zoster virus,plaque formation,"HEL, TK- 07-1",,26.5 µM
CC(=O)Oc1ccc(Cn2cc(C)c(=O)[nH]c2=O)cc1C1OC(c2ccccc2)=NN1C(C)=O (centres unmarked),varicella-zoster virus,"plaque formation, plaque reduction","HEL fibroblasts, TK+ strain OKA",,> 100 µM
O=C1C(Cc2ccc(C(F)(F)F)cc2)=CS(=O)(=O)c2ccccc21,Leishmania panamensis,"parasite growth, flow cytometry",U-937,"72 h, intracellular, amastigote",3.96 µM
CC(=O)Oc1ccc(Cn2cc(F)c(=O)[nH]c2=O)cc1C1OC(c2cccc(Cl)c2)=NN1C(C)=O (centres unmarked),varicella-zoster virus,"plaque formation, plaque reduction","HEL fibroblasts, TK+ strain OKA",,34.4 µM
CCCCCCCCCC1=CC(=O)c2ccccc2S1(=O)=O,Leishmania panamensis,"parasite growth, flow cytometry",U-937,"72 h, intracellular, amastigote",92.7 µM
CCOC(=O)[C@@H](C)NP(=O)(CO[C@H](CF)Cn1cnc(N)nc1=O)N[C@H](C)C(=O)OCC,varicella-zoster virus,plaque formation,"HEL, TK-deficient 07-1",,> 100 µM
CNC(=O)CNc1cnc2ccc(-c3ccc(OC)c(OC)c3)cc2n1,Cryptosporidium hominis,cytopathic effect,HCT-8,,8.56 µM
Nc1ncnc2c1c(F)cn2[C@@H]1O[C@H](CO)[C@@H](O)[C@H]1O,Trypanosoma equiperdum,"parasite growth, resazurin",,72 h,0.033 µM
CNC(=O)c1ccc(-c2cnn3ccc(C(=O)N(c4ccc(C#N)cn4)C(C)(C)C)cc23)cc1,Cryptosporidium hominis,cytopathic effect,HCT-8,,1.94 µM
CC(=O)Oc1ccc(Cn2cc(C)c(=O)[nH]c2=O)cc1C1OC(c2cccc(Cl)c2)=NN1C(C)=O (centres unmarked),varicella-zoster virus,"plaque formation, plaque reduction","HEL fibroblasts, TK+ strain OKA",,> 20 µM
CNC(=O)c1ccc(-c2cnc3cnc(C(=O)N(C)c4ccc(Cl)cc4)cn23)cc1,Cryptosporidium hominis,cytopathic effect,HCT-8,,0.082 µM
CC(=Nn1c(-c2ccccc2)nc2ccccc2c1=O)c1ccc(Cl)cc1,reovirus 1,viral replication,Vero,,> 20 µg/mL

# Repeated from above:
Structure (SMILES),organism,assay,system,setting,EC50
CC(C)Nc1nc(NCc2ccco2)c2ccccc2n1,Leishmania mexicana,parasite growth,,amastigote,1.41 µM
CC(=O)Oc1ccc(Cn2cc(C)c(=O)[nH]c2=O)cc1C1OC(c2cccc(Cl)c2)=NN1C(C)=O (centres unmarked),varicella-zoster virus,"plaque formation, plaque reduction","HEL fibroblasts, TK+ strain OKA",,> 20 µM
